Measured values pooled from the literature.
A part holds a random share of what one study measured. Changes are numbered by the printed parent chain.

Block 1
Target: Hepatocyte nuclear factor 3-alpha (Foxa1, Mus musculus, UniProt P35582, residues 1-468, full length assumed)
UniProt P35582, sequence (whole entry, looked up): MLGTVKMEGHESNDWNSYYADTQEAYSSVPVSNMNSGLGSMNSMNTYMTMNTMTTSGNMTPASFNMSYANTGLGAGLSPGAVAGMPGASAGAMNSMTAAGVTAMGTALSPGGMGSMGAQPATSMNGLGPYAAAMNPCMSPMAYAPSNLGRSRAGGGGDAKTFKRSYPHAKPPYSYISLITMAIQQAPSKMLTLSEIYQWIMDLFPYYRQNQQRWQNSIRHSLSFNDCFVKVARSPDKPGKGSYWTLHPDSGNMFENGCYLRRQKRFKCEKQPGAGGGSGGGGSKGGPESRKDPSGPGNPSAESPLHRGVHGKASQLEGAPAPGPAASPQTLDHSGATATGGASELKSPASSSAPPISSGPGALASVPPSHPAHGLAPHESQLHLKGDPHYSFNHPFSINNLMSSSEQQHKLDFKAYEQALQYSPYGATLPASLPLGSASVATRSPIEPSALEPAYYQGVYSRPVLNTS
Method: EMSA with sequencing
Molecule type: double-stranded DNA, one strand shown
Medium: in vitro
Concentration: 10 and 20 nM
Setting: whole designed probe, mean of two concentrations, ends assumed
Relative to: negative control set to 0
Direction: higher = stronger binding
Under “normalised bound fraction”, `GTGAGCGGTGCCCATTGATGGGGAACATCTTCCCCCTCTTCCTTGCCCCACCAGCTCACCTTCCCGGGTTATTTGCAGATAGGAAAATAAATAAAGCCGGCATTCGTTAACCCTCTTCACGCGCATACTGCTGTTTGCTCTGGATGAATCATGGTCCTTTGGCGAGGCGTGGCTCCGGGAGAGCAAAGCACCGTGTCAGGGCCATGATCCGGGGTGGCCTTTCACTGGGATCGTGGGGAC` is recorded as 0.34 ratio.
For `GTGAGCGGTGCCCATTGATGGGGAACTTTTGCCTGTGATGTTAAAACTGATTAATGTGAAGAAAATGCAATGCTTTTATCCATCATGAGCTTTGAGGGGGGAAAAAAGTTTTAGAGAAAAGTAAACAAGTAAAAACAAAGGATTAAATAGGAAAATGAAGAGTGCTGGCCTAGCATTTAGGGCATTTGATATCCTGTGGACTTCTAATTAATTAAGCAGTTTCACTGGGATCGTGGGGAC`, “normalised bound fraction” read 0.445 ratio.
`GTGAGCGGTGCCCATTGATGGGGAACATCTTCCCCCTCTTCCTTGCCCCACCAGCTCACCTTCCCGGGTTATTTGCACAAAGGAAAATAAATAAAGCCGGCATTCGTTAACCCTCTTCTGGCGCAAACTGCTGTTTGCTCTGCATCTAACATGGTCCTTACGCGAGGCGTGGCTCCGGGAGAGCAAAGCACCGTGTCAGGCGCATGATCCGGGCTCGCCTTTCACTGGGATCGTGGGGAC`: “normalised bound fraction” 0.379 ratio.
`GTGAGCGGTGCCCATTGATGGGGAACATCTTCCCCCTCTTCCTTGCCCCACCAGCTCACCTTCCCGGGTTATTTGCAGATAGGAAAATAAATAAAGCCGGCATTCGTTAACCCTCTTCTGGCGCAAACTGCTGTTTGCTCTAGCAGGATTATGGTCCTTTGGCGACGCCAGGCTCCGGGAGAGCAAAGCACCGTGTCAGGGCCATGATCCGGGGTGGCCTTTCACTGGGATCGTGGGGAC`: “normalised bound fraction” 0.366 ratio.
For `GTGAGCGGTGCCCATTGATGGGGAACTAATACAGTGTCCACCCCATACTGTAGTCTATCTGAACCTTATCCACTTTAGCTCAAATTTTAATAAAAGTCTACTTCAACCTGCATCTTCATGTTTACACAGTGATCTCAGTCCCAAACTGCCTATCCTCTGGGAATTCCTAATGCATTTATTATCTTGACCAGTTATGTAGATTCAAAGAATCTCATTTATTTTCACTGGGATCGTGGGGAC`, “normalised bound fraction” read 0.442 ratio.
`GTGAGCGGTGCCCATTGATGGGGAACTAGCAGGTCACTGCCAGTCACGAGGGCAGAGAGACCCAAAGGATCAGAGAACAGCTCTGAGCAGGTCATGCGCAGTGCCAGAAGGAAAGCCTTTGTTTACAGAGGGAAAGATCCTGCACCTTGAAGTGAGGCATTAAAGAGTAGAGGGGCTTTGCACCTGCATCCTAAGCCTCTTGGTTCACCACTAAGCCGCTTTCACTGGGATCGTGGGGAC` — result for “normalised bound fraction”: 0.403 ratio.
`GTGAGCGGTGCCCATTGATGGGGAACAGAAATTAGGATTTGAAGATGGAGGGGAAAGTGGGTGGGGAAAGAGTAGAGTAGATAGGGCTAAATAAATAAAACTACCATGTATATGAACAGTGTAATCTAGGACTTAAGAACTACTAAGTCCTTGTCTTGTATTAGTAAATACTAAATTATAAATAAAACACACTATAAGAATGTTGTTTTATATATCAATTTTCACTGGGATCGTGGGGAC`: “normalised bound fraction” 0.425 ratio.
Under “normalised bound fraction”, `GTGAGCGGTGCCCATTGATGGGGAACAGGTGAATTGGCTGCTTCCATCCTGGCTTGGAACTTCAGACATAGAAGCCTTGGGACTCTGACTCATGCTTCTCAGGACTTTCTCCAGATGCTTGTTTGCTGAATCTCTGTGGATCACGTGACCTTAGCCAGGGATGTTGGTGAAACTGTGTGTTGGTCTAGGTACCTAGCCCATGCTAGGTGCTCATCGAATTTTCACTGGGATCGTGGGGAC` is recorded as 0.0514 ratio.

Block 2
Target: Sal-like protein 4, full length isoform B (SALL4, Homo sapiens, UniProt Q9UJQ4-2, residues 1-616)
Method: universal PBM
Molecule type: double-stranded DNA, one strand shown
Medium: in vitro
Concentration: not given
Setting: 8-mer, flanks averaged, mean of replicates
Direction: higher = stronger binding
With `GCCTAACA` the E-score was -0.104.
The E-score of `TCAAGTGA` is reported as 0.097.
For `ACCTCGTA`, the E-score was 0.14.
The E-score of `AGGACCAA` is reported as -0.14.
The E-score of `TACTACCA` is reported as 0.0746.
`CGAAGCAC` has an E-score of -0.109.
For `ATGAATTC`, the E-score was 0.204.
`ACGCAAAG` has an E-score of -0.00249.
`AGTTACTA` gave an E-score of 0.127.
`ACAGGATG` gave an E-score of 0.0362.
For `GTCGGCGA`, the E-score was -0.311.
For `TAGGGAAA`, the E-score was 0.107.
For `ACCATAGA`, the E-score was 0.0981.
The E-score of `AAGTCACG` is reported as -0.118.
`CGACATCC` has an E-score of -0.182.
`AGGCGACT` has an E-score of -0.0908.
For `GTAGGGGA`, the E-score was -0.14.
With `GAGCCACA` the E-score was -0.106.
`TCTAAGCA` has an E-score of -0.0686.

Block 3
Target: CCND1, cyclin fold, Cln2 fusion (human)
Method: yeast growth competition, sequencing
Medium: yeast
Setting: strong parent motif
Relative to: not given
Direction: higher = stronger binding
Starting sequence: RBL1 docking peptide (human); GSAKRRLFGEDPP
`GSAKRRLVGEDPP [F8V]` — result for “normalised enrichment score”: 0.519.
`YSAKRRLFGEDPP [G1Y]`: “normalised enrichment score” 3.98.
Under “normalised enrichment score”, `GFAKRRLFGEDPP [S2F]` is recorded as 0.416.
`GSAKRRLFGEDPL [P13L]`: “normalised enrichment score” 2.27.
`GSAKRRLFGEDPF [P13F]`: “normalised enrichment score” 1.41.
`GSAKRRLFGEDRP [P12R]` — result for “normalised enrichment score”: 1.49.
`GSAKRHLFGEDPP [R6H]` — result for “normalised enrichment score”: 1.07.
`GSAIRRLFGEDPP [K4I]`: “normalised enrichment score” 2.93.
`GSAKRRLFGIDPP [E10I]`: “normalised enrichment score” 0.948.
`ISAKRRLFGEDPP [G1I]`: “normalised enrichment score” 2.23.
For `GSAKQRLFGEDPP [R5Q]`, “normalised enrichment score” read 0.15.
`GSAKNRLFGEDPP [R5N]`: “normalised enrichment score” 0.582.
Under “normalised enrichment score”, `GSAKRRLFPEDPP [G9P]` is recorded as 3.12.
For `GSAKRILFGEDPP [R6I]`, “normalised enrichment score” read 1.59.
Under “normalised enrichment score”, `GSAKRRLFGEDFP [P12F]` is recorded as 1.75.
`GSAKRRLFGEDPG [P13G]` — result for “normalised enrichment score”: 1.32.
`GSAKRRLAGEDPP [F8A]`: “normalised enrichment score” 0.225.
For `GSAKHRLFGEDPP [R5H]`, “normalised enrichment score” read 0.622.
For `GSAKRREFGEDPP [L7E]`, “normalised enrichment score” read -0.0575.
Under “normalised enrichment score”, `GSAKRRLCGEDPP [F8C]` is recorded as 0.39.
Under “normalised enrichment score”, `ASAKRRLFGEDPP [G1A]` is recorded as 2.04.
Under “normalised enrichment score”, `GSAKRTLFGEDPP [R6T]` is recorded as 0.549.
`GSAERRLFGEDPP [K4E]`: “normalised enrichment score” 0.76.
For `GSAKRRLFSEDPP [G9S]`, “normalised enrichment score” read 2.9.
For `GRAKRRLFGEDPP [S2R]`, “normalised enrichment score” read 1.32.

Block 4
Target: Interferon regulatory factor 7, full length, phosphomimetic (IRF7, Homo sapiens, UniProt Q92985, residues 1-503, S101K/S471D/S472D/S475D/S476D/S477D/S483D/S484D/S487D)
UniProt Q92985, sequence (whole entry, unmodified, looked up): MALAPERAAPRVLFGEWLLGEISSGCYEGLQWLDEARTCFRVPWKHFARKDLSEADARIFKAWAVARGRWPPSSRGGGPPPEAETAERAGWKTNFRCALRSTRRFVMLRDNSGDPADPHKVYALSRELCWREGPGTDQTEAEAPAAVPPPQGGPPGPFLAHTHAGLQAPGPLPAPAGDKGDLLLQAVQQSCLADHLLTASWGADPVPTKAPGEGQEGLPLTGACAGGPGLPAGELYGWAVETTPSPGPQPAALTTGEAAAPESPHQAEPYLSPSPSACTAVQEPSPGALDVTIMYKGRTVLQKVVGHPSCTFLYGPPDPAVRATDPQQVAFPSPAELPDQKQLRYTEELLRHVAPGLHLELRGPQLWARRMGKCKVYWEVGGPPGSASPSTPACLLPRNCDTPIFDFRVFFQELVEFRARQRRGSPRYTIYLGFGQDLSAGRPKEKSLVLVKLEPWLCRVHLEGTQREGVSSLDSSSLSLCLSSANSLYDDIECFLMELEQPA
Method: protein-binding microarray
Molecule type: double-stranded DNA, one strand shown
Medium: in vitro
Concentration: 250 nM
Setting: 60-bp whole probe
Added: salmon DNA 0.4 mg/ml
Relative to: random background probes
Direction: higher = stronger binding
All sequences stand within: GCCTAGCAC … GTCTTGATTCGCTTGACGCTGCTG
`TTAGGACTGCTACAGCTTTAGTGCTAG` gave a log fluorescence of -0.471 z-score.
The log fluorescence of `CAAACACTAGTTTTTACTTTGTGCTAG` is reported as 0.394 z-score.
`TTAGAACTGGGGTATAGATTAGTGCTA` has a log fluorescence of -0.394 z-score.
For `GACGGTTTCGACTTTCGGGATGTGCTA`, the log fluorescence was 10.6 z-score.
`GACGGTTCCCTTTTCCTGCCGTGCTAG` has a log fluorescence of 2.58 z-score.
For `TCTCTTTCCTTCTTGATGCAGTGCTAG`, the log fluorescence was 2.2 z-score.
`TCATTCATGAAATTTTAAACTGTGCTA` gave a log fluorescence of 0.792 z-score.
`GACGGTTTCGACGCTGGGGACGTGCTA` gave a log fluorescence of 1.8 z-score.
`CTCCTAATAAATATGAGACTGTGCTAG` gave a log fluorescence of 0.54 z-score.
The log fluorescence of `GACGAACTGAGTCGCGAGACGTGCTAG` is reported as -0.223 z-score.
`GAGATTTTCATTATTGCTTCGTGCTAG` has a log fluorescence of 0.795 z-score.
`TCACATTTTCTCTTATTACTGTGCTAG` gave a log fluorescence of 1.66 z-score.
The log fluorescence of `TTGGATTTCGGGTATCGATTAGTGCTA` is reported as 1.51 z-score.
With `GACGATAACAGACTGGAGACGTGCTAG` the log fluorescence was -0.419 z-score.
For `GAGGGTCTCGGTATCGGGACGTGCTAG`, the log fluorescence was 1.12 z-score.
`AACGGTATCCTTCTCCTGACGTGCTAG` has a log fluorescence of 0.323 z-score.
`TCAGTTTTCTCCATGGAACTGTGCTAG` has a log fluorescence of 0.624 z-score.
`ATAAACTTAGTTTTCAATTTGTGCTAG` gave a log fluorescence of 1.35 z-score.
For `GACGAACTGGGGACTGGAGCCGTGCTA`, the log fluorescence was -0.652 z-score.
The log fluorescence of `GACGGTCTCCTAGTGCTGACGTGCTAG` is reported as -0.741 z-score.
With `TCATTAATCACATATACAACTGTGCTA` the log fluorescence was 0.986 z-score.
`GACGGTTTCGATATCGGGACGTGCTAG` has a log fluorescence of 12.1 z-score.
`TTAGGCTTCCTACTGCTTTAGTGCTAG` gave a log fluorescence of 0.0621 z-score.
`TCATCTCTACTTGTGTCACTGTGCTAG` gave a log fluorescence of 0.844 z-score.
For `GACGGACTGCTACTGCTCACGTGCTAG`, the log fluorescence was -0.93 z-score.
